Experimental data from different studies.
Each line is one published result; not all experiments were run side by side. Numbers after ± are the reported error.
Chain of UniProt O94921 (whole entry, looked up): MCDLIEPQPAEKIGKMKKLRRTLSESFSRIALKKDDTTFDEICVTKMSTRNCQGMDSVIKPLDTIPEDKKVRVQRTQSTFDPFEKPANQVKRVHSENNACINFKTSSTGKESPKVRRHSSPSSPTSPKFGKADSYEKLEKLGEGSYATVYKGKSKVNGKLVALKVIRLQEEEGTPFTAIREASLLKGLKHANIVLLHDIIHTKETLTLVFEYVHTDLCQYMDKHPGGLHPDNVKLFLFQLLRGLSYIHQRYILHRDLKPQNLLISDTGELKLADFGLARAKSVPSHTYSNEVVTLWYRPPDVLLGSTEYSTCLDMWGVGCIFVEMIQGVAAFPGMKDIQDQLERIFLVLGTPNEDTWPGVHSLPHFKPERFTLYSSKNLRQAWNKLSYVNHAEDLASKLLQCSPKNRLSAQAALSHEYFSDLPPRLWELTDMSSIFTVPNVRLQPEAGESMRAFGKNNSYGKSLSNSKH
Chain of UniProt P07947 (whole entry, looked up): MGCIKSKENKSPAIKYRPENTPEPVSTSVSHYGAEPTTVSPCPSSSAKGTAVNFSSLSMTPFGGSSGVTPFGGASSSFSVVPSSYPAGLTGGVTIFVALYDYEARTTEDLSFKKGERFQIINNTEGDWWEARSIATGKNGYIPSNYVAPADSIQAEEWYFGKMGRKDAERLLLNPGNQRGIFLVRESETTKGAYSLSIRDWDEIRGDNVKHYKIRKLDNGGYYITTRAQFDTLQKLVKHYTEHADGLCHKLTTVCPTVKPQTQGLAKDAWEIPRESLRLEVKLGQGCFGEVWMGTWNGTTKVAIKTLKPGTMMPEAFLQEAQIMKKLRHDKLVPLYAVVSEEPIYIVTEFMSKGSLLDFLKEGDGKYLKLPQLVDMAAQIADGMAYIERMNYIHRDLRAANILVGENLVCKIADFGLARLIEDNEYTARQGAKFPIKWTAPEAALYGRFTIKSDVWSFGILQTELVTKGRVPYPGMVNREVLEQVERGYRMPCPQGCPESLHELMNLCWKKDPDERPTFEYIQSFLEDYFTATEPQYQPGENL

Structure (SMILES) | target or system | test | test system | setting | how to read | endpoint | value
C#Cc1c(F)ccc2cc(O)cc(-c3ncc4c(N5CC6CCC(C5)N6C(=O)OC(C)OC(=O)CCC5CCCC5)nc(OC[C@@]56CCCN5C[C@H](F)C6)nc4c3F)c12 (stereo partly shown) | – | chemical stability | simulated intestinal fluid | 1 µM, 30 min | – | compound remaining | 36.3%
O=C(NCc1ccc(Cl)cn1)C(=O)C(Cc1ccccc1)NC(=O)C1CC(F)CN1C(=O)C(NC(=O)C1CCC(F)(F)CC1)C1CCCCC1 (stereo not shown) | – | – | dog | oral, 25 mg/kg | – | AUC(0-t) | 6870 ng·h/mL
CCCCCCCCCCCCCCCC(=O)N[C@@H](CCC(=O)NCCOCCOCCC(=O)NCCOCCOCCC(=O)NCCCC[C@H](NC(=O)[C@H](CC(=O)O)NC(=O)[C@H](CC(C)C)NC(=O)[C@H](Cc1ccc(O)cc1)NC(=O)[C@H](CCCCN)NC(=O)[C@H](CO)NC(=O)[C@H](Cc1ccc(O)cc1)NC(=O)[C@H](CC(=O)O)NC(=O)[C@H](CO)NC(=O)[C@@H](NC(=O)[C@H](Cc1ccccc1)NC(=O)[C@@H](NC(=O)CNC(=O)[C@H](CCC(N)=O)NC(=O)[C@@H](CO)NC(=O)[C@@H](N)Cc1c[nH]cn1)[C@@H](C)O)[C@@H](C)O)C(=O)N[C@@H](CCCNC(=N)N)C(=O)N[C@@H](CCCNC(=N)N)C(=O)N[C@@H](C)C(=O)N[C@@H](CCC(N)=O)C(=O)N[C@@H](CC(=O)O)C(=O)N[C@@H](Cc1ccccc1)C(=O)N[C@H](C(=O)N[C@@H](CCC(N)=O)C(=O)N[C@@H](Cc1c[nH]c2ccccc12)C(=O)N[C@@H](CC(C)C)C(=O)N[C@@H](CC(C)C)C(=O)N[C@@H](CC(N)=O)C(=O)N[C@H](C(=O)NCC(=O)NCC(=O)N1CCC[C@H]1C(=O)N[C@@H](CO)C(=O)N[C@@H](CO)C(=O)NCC(=O)N[C@@H](C)C(=O)N1CCC[C@H]1C(=O)N1CCC[C@H]1C(=O)N1CCC[C@H]1C(=O)N[C@@H](CO)C(N)=O)[C@@H](C)O)C(C)C)C(=O)O | – | – | rhesus monkey, male | subcutaneous, 20 µg/kg once daily, 28 days | – | creatinine | 49.4 ± 4 µmol/L
CN1Cc2cc(Cl)ccc2-n2c(nnc2C2CCN(c3cccc([18F])n3)CC2)C1 | – | – | C57BL/6 mouse male, urinary bladder | intravenous, 3.7 MBq, 30 min | – | tissue uptake | 15.3 ± 3.74 %ID/g
COc1ccccc1-c1n[nH]c2nc(NC3CCN(C(=O)Cc4ccc(F)cc4F)CC3)ncc12 | – | bead binding, competition bead pull-down, item: LINJ.35.4540 | Leishmania donovani axenic amastigote extract | 10 µM | reference: vehicle | relative abundance | 0.99
O=C1NC(=O)c2c1c1cc(F)c[n+]3c1c1c2c2cc(O)ccc2[n]1[Ru-4]312([N]=C=S)[S+]3CC[S+]1CC[S+]2CC3 (stereo not shown) | Protein kinase C gamma type (PRKCG, Homo sapiens, UniProt P05129) | enzyme activity | – | 100 nM, human enzyme, together with: 10 µM ATP | reference: untreated | remaining activity | 90%
CC[C@H](C)[C@H](NC(=O)CNC(=O)[C@H](CCSC)NC(=O)[C@H](CCC(N)=O)NC(=O)[C@H](C)NC(=O)[C@H](CCC(N)=O)NC(=O)[C@@H](NC(=O)[C@H](CC(C)C)NC(=O)[C@H](C)NC(=O)[C@H](CO)NC(=O)[C@H](CCSC)NC(=O)[C@H](CCC(=O)O)NC(=O)[C@H](CC(C)C)NC(=O)[C@H](Cc1ccc(O)cc1)NC(=O)[C@H](CO)NC(=O)[C@H](CCC(=O)O)NC(=O)[C@H](CCC(N)=O)NC(=O)[C@H](CCCNC(=N)N)NC(=O)[C@H](CCCCN)NC(=O)[C@H](CC(=O)O)NC(=O)[C@H](CC(C)C)NC(=O)[C@H](CC(N)=O)NC(=O)[C@H](Cc1ccccc1)NC(=O)[C@H](CCC(=O)O)NC(=O)[C@H](CCCCN)NC(=O)[C@@H](NC(=O)[C@H](CC(C)C)NC(=O)[C@H](CCC(=O)O)NC(=O)[C@H](CCC(=O)O)NC(=O)[C@@H](NC(=O)[C@@H](NC(=O)[C@H](CCCNC(=N)N)NC(=O)[C@H](CCCCN)NC(=O)[C@H](C)NC(=O)[C@H](Cc1ccccc1)NC(=O)[C@H](CCC(=O)O)NC(=O)[C@H](CCC(=O)O)NC(=O)[C@H](CC(C)C)NC(=O)[C@@H](N)CO)C(C)C)C(C)C)C(C)C)[C@@H](C)CC)C(=O)N[C@@H](CO)C(=O)N[C@@H](CCC(=O)O)C(=O)N[C@@H](CCCNC(=N)N)C(=O)N[C@H](C(=O)N[C@H](C(=O)N[C@@H](CCC(=O)O)C(=O)N[C@H](C(=O)N[C@H](C(=O)N[C@@H](CC(C)C)C(=O)N[C@@H](CCCNC(=N)N)C(=O)N[C@@H](Cc1c[nH]cn1)C(=O)N[C@@H](C)C(=O)N[C@@H](C)C(=O)N[C@@H](CCC(N)=O)C(=O)N[C@H](C(=O)N[C@@H](CC(C)C)C(=O)N[C@@H](CCCCN)C(=O)O)[C@@H](C)O)C(C)C)[C@@H](C)CC)[C@@H](C)CC)[C@@H](C)CC | – | LC-MS/MS | male ICR (CD-1) mice, plasma | intravenous, 1 mg/kg | – | Tmax | 4.8 min
CC(C)[C@H]1NC(=O)C[C@H]2/C=C/CCSSC[C@@H](NC1=O)C(=O)N[C@H](Cc1cccc3ccccc13)C(=O)NCC(=O)O2 | Tyrosine-protein kinase Yes (YES1, Homo sapiens, UniProt P07947) | enzyme activity, inhibitor | – | 10 µM | – | inhibition | -8.6%
O=C1NC2(CC2)COc2ncc(F)cc2[C@H]2COCCN2c2ccn3ncc1c3n2 | – | – | Sprague-Dawley rat, female, blood | oral, 2.5 mg/kg/day, 4 weeks, end of recovery, subacute toxicity | – | monocyte percentage | 1.5 ± 0.6%
CN(C)[C@H]1C[C@@]23CC[C@@]4(O2)C(=CC[C@]2(C)[C@@H](c5ccc6ccncc6c5)CC[C@H]24)C=C3[C@@H](O)[C@@H]1O | Cyclin-dependent kinase 14 (CDK14, Homo sapiens, UniProt O94921) | ATP probe labelling, inhibitor, KiNativ profiling | – | 0.1 µM | – | inhibition | -4.5%
CC(C)(c1cc(Br)c(O)c(Br)c1)c1cc(Br)c(O)c(Br)c1 | – | ultrafiltration | cow milk whey | 2000 nM nominal in whole milk | – | final permeate concentration | 50.9 nM
Cc1cc(Oc2nc(N3CC[C@@H](c4ccncc4)C3)ncc2F)[nH]n1 | C-33-A | cell proliferation | – | – | – | IC50 | 26.9 µM
CC(=O)N1c2ccc(-c3ccc(C(=O)NCCN4CC(N5CCN(CC(=O)N[C@H](C(=O)N6C[C@H](O)C[C@H]6C(=O)NCc6ccc(-c7scnc7C)cc6)C(C)(C)C)CC5)C4)cc3)cc2[C@H](Nc2ccc(Cl)cc2)C[C@@H]1C | – | – | Sf9 cell culture medium | – | – | kinetic solubility | < 1.56 µM
C=C/C=C/C[C@@H](C)[C@@H](O)[C@H]1C(=O)N[C@@H](CC)C(=O)N(C)CC(=O)N(C)[C@@H](CC(C)C)C(=O)N[C@@H](C(C)C)C(=O)N(C)[C@@H](CC(C)C)C(=O)N[C@@H](C)C(=O)N[C@H](C)C(=O)N(C)[C@@H](CC(C)C)C(=O)N(C)[C@@H](CC(C)C)C(=O)N(C)[C@@H](C(C)C)C(=O)N1C | – | – | Wistar Kyoto rat, male, 24-hour urine | ip, 0.5 mg/kg/day, day 18 | – | urine volume | 7.2 ± 3.5 mL/day
CC(C)[C@@H]1NC(=O)CNC(=O)[C@H](CC(N)=O)NC(=O)[C@H](CCCNC(=N)N)NC(=O)[C@H](Cc2ccc(O)cc2)NC(=O)[C@H](C(C)C)NC(=O)[C@@H](NC(=O)[C@@H](NC(=O)[C@H](CC(N)=O)NC(=O)[C@H](Cc2c[nH]c3ccccc23)NC(=O)[C@H](C)NC(=O)[C@H](Cc2ccccc2)NC(=O)CNC(=O)[C@H](CCCCN)NC(=O)[C@H](Cc2ccccc2)NC(=O)[C@H](Cc2ccccc2)NC(=O)[C@H](CCCCN)NC(=O)OCC2c3ccccc3-c3ccccc32)C(C)C)CSSC[C@@H](C(=O)N[C@@H](Cc2c[nH]cn2)C(=O)N[C@@H](CCCNC(=N)N)C(=O)N[C@@H](CCCNC(=N)N)C(=O)N[C@@H](C)C(=O)N[C@@H](CC(N)=O)C(N)=O)NC(=O)[C@H](C(C)C)NC(=O)[C@H](CCCNC(=N)N)NC1=O | – | – | ICR mouse, serum | ip, 10 mg/kg, 3 d dosing, blood day 5 | – | blood urea nitrogen | 10.5 ± 0.47 mmol/L
CC(C)(C)C(=O)OCOP(=O)(OCOC(=O)C(C)(C)C)C1CCCN(O)C1=O (stereo not shown) | K562 | – | – | – | – | GI50 | 0.393 µM
CCCC[C@H]1C(=O)N(C)[C@@H](CCCC)C(=O)N[C@@H](CCCNC(=O)CN2CCN(CC(=O)O)CCN(CC(=O)O)CCN(CC(=O)O)CC2)C(=O)N[C@H](C(=O)NCC(N)=O)CSCC(=O)N[C@@H](Cc2ccc(O)cc2)C(=O)N(C)[C@@H](C)C(=O)N[C@@H](CC(N)=O)C(=O)N2CCC[C@H]2C(=O)N[C@@H](Cc2c[nH]cn2)C(=O)N[C@@H](CC(C)C)C(=O)N(C)CC(=O)N[C@@H](Cc2c[nH]c3ccccc23)C(=O)N[C@@H](CO)C(=O)N[C@@H](Cc2c[nH]c3ccccc23)C(=O)N1C [gallium-68 labelled] | – | – | NOD/SCID mice with CHO-hPD-L1 xenograft, blood | 10 min post injection | – | tissue uptake | 12.9 ± 0.42 %ID/g
CC[C@H](C)[C@H](NC(=O)[C@H](CCCCN)NC(=O)CNC(=O)[C@H](CC(C)C)NC(=O)[C@H](Cc1ccccc1)NC(=O)[C@H](CCCCN)NC(=O)[C@H](CO)NC(=O)[C@H](Cc1ccccc1)NC(=O)[C@H](Cc1c[nH]c2ccccc12)NC(=O)[C@H](CCC(N)=O)NC(=O)[C@@H](NC(=O)[C@H](Cc1ccccc1)NC(=O)CCCCCNC(=O)CN1CCN(CC(=O)O)CCN(CC(=O)O)CCN(CC(=O)O)CC1)C(C)C)C(=O)N[C@@H](CCC(=O)O)C(=O)N1CCC[C@H]1C(=O)N[C@@H](CC(=O)O)C(=O)N[C@H](C(=O)N[C@@H](CO)C(=O)N[C@@H](CCC(N)=O)C(=O)N[C@H](C(=O)N[C@@H](CCC(N)=O)C(=O)N[C@@H](CC(=O)O)C(=O)N1CCC[C@H]1C(=O)N[C@@H](CC(N)=O)C(=O)N[C@@H](CC(=O)O)C(=O)N[C@@H](CCC(N)=O)C(=O)N[C@@H](Cc1ccc(O)cc1)C(=O)N[C@@H](CCC(=O)O)C(=O)N1CCC[C@H]1C(=O)N[C@@H](Cc1ccccc1)C(=O)O)C(C)C)C(C)C [copper-64 labelled] | – | – | C57BL/6 mice, kidneys | together with: LPS 0.1 mg/kg intratracheal | – | tissue uptake | 20.3 ± 4.2 %ID/g
C=Cc1c(C)c2cc3nc(c(CC(=O)O)c4[nH]c(cc5nc(cc1[nH]2)C(C)=C5CC)c(C)c4C(=O)O)[C@@H](CCC(=O)NCCCC[C@H](NC(C)=O)C(=O)N[C@@H](Cc1ccccc1)C(=O)N[C@@H](Cc1ccccc1)C(=O)N[C@H](C(=O)N[C@@H](CC(C)C)C(=O)N[C@@H](CCCCN)C(=O)N[C@@H](CO)C(=O)NCC(=O)N[C@@H](CCC(N)=O)C(=O)N[C@@H](Cc1ccc(O)cc1)C(=O)N[C@@H](C)C(=O)N[C@@H](CO)C(=O)N[C@@H](Cc1ccc(O)cc1)C(=O)N[C@@H](Cc1c[nH]cn1)C(=O)N[C@@H](CS)C(=O)N[C@@H](Cc1c[nH]c2ccccc12)C(=O)N[C@@H](CS)C(=O)N[C@@H](Cc1c[nH]c2ccccc12)C(=O)N[C@@H](CCCNC(=N)N)C(=O)N[C@@H](CC(=O)O)C(=O)N1CCC[C@H]1C(=O)NCC(=O)N[C@@H](CCCNC(=N)N)C(=O)N[C@@H](CO)C(=O)NCC(=O)NCC(=O)N[C@@H](CO)C(=O)N[C@@H](CCCCN)C(N)=O)C(C)C)[C@@H]3C | – | – | mouse, blood | 24 h | – | blood concentration | 54.4 µg/mL
